Experimental data collected from several papers.
Compare with care: the assays were run in different laboratories. Numbers after ± are the reported error.

The Cmax of CC[C@H](C)[C@H](NC(=O)[C@H](Cc1ccccc1)NC(=O)[C@H](CCC(=O)O)NC(=O)[C@H](CCCCNC(=O)COCCOCCNC(=O)COCCOCCNC(=O)CC[C@H](NC(=O)CCCCCCCCCCCCCCCCC(=O)O)C(=O)O)NC(=O)[C@H](C)NC(=O)[C@H](C)NC(=O)[C@H](CCC(N)=O)NC(=O)CNC(=O)[C@H](CCC(=O)O)NC(=O)[C@H](CC(C)C)NC(=O)[C@H](Cc1ccc(O)cc1)NC(=O)[C@H](CO)NC(=O)[C@H](CO)NC(=O)[C@@H](NC(=O)[C@H](CC(=O)O)NC(=O)[C@H](CO)NC(=O)[C@@H](NC(=O)[C@H](Cc1ccccc1)NC(=O)[C@@H](NC(=O)CNC(=O)[C@H](CCC(=O)O)NC(=O)C(C)(C)NC(=O)[C@@H](N)Cc1cnc[nH]1)[C@@H](C)O)[C@@H](C)O)C(C)C)C(=O)N[C@@H](C)C(=O)N[C@@H](Cc1c[nH]c2ccccc12)C(=O)N[C@@H](CC(C)C)C(=O)N[C@H](C(=O)N[C@@H](CCCNC(=N)N)C(=O)NCC(=O)N[C@@H](CCCNC(=N)N)C(=O)NCC(=O)O)C(C)C is reported as 9.54 nM (human, plasma; 7 mg, model-estimated mean).
For CC(=O)N1CCC(Nc2cc(C(=O)NC[C@H](O)CN3CCc4ccccc4C3)ncn2)CC1, the Cmax was 890 ng/mL (human, plasma; oral, 300 mg, week 3 day 1, geometric mean).
Cc1ccc(C)c(OCCCC(C)(C)C(=O)O)c1 gave a Cmax of 28000 ng/mL (human, plasma; oral, 600 mg single, before lopinavir/ritonavir, geometric mean).
C[C@H]1CNCCCN1S(=O)(=O)c1cccc2cncc(F)c12 has a Cmax of 0.609 ng/mL (human, male, plasma; ocular instillation, 1 drop per eye twice daily, day 8).
For COc1cc(-c2cnc3cc(OCCN4CCOCC4)ccn23)cc2c1C(=O)N(CC(F)(F)F)CC2, the Cmax was 1130 ng/mL (LC-MS; human, plasma; oral, 350 mg, day 5, together with: sulfasalazine 1000 mg).
For Cc1ccc(C(=O)NC2CC2)cc1-n1ncc(C(=O)c2cccc(C#N)c2)c1N, the Cmax was 327 ng/mL (healthy human; oral, 30 mg single, mean).
For CC(C)NC(=O)COc1cccc(-c2nc(Nc3ccc4[nH]ncc4c3)c3ccccc3n2)c1, the Cmax was 1710 ng/mL (human male, plasma; oral, 200 mg, day 5, alone, adjusted geometric mean).
With Nc1ccn([C@@H]2O[C@H](CO)[C@@H](O)C2(F)F)c(=O)n1 the Cmax was 11600 ng/mL (HPLC-UV; human, plasma; intravenous, 800 mg/m^2, median, after paricalcitol).
CNC(=O)c1cc(Oc2ccc(NC(=O)Nc3ccc(Cl)c(C(F)(F)F)c3)cc2)ccn1 has a Cmax of 4700 ng/mL (human, plasma; oral, 400 mg daily, median, dose level -1, together with: carboplatin AUC 3, gemcitabine 650 mg/m2).
Fc1ccc([C@@H]2CCNC[C@H]2COc2ccc3c(c2)OCO3)cc1 gave a Cmax of 38 ng/mL (human, CYP2D6 intermediate metabolizers; oral, 20 mg, steady state, geometric mean).
CO[C@@H]1[C@H](OC(=O)N2CC(CCN3CCOCC3)C2)CC[C@]2(CO2)[C@H]1[C@@]1(C)O[C@@H]1CC=C(C)C gave a Cmax of 1.87 ± 1.09 ng/mL (humans, plasma; subcutaneous, 0.6 mg twice weekly, first dose).
The Cmax of NC1(C(=O)N[C@@H](CCO)c2ccc(Cl)cc2)CCN(c2nc[nH]c3nccc2-3)CC1 is reported as 353 ng/mL (human patients, plasma; dose not given, cohort 160/320, cycle 2, geometric mean).
COc1nnc2ccc(N3CCC(c4ccc(OCCN5CCN(C)C(=O)[C@H]5C)cc4)CC3)nn12 gave a Cmax of 87.9 nM (human, plasma; oral, 10 mg once daily, multiple dose, monotherapy).
Under Cmax, CNC(=O)n1ccc2cc(Oc3ccnc(NC(=O)c4ccc(C5CCN(CCO)CC5)cc4)c3)c(OCCOC)cc21 is recorded as “no effect” (healthy human; dose not given, together with: rabeprazole; baseline: compound alone).
With CNC(=O)c1c(C)oc2cc(Oc3ncnc4cc(OC)c(OC)cc34)ccc12 the Cmax was 118 ng/mL (human, normal hepatic function (Child-Pugh), plasma; oral, 5 mg, single dose).
With CC(=O)O[C@H]1C(=O)[C@@]2(C)[C@H]([C@H](OC(=O)c3ccccc3)[C@]3(O)C[C@H](OC(=O)[C@H](O)[C@@H](NC(=O)c4ccccc4)c4ccccc4)C(C)=C1C3(C)C)[C@]1(OC(C)=O)CO[C@@H]1C[C@@H]2O the Cmax was 2230 ng/mL (noncompartmental analysis; human cancer patients, plasma; intravenous infusion, 80 mg/m^2, cycle 1 day 1, together with: daily oral co-medication).
N#C[C@H](C[C@@H]1CCCNC1=O)NC(=O)[C@H](CC1CC1)NC(=O)c1cc2cccc(Cl)c2[nH]1 gave a Cmax of 1090 ng/mL (human; 150 mg once daily, day 1).
With C[C@H](CCC(=O)O)[C@H]1CC[C@H]2[C@@H]3CC[C@@H]4C[C@H](O)CC[C@]4(C)[C@H]3C[C@H](O)[C@]12C the Cmax was 1010 ± 230 nM (human, plasma; concentration not given, endogenous baseline diurnal).
With CN(C(=O)C(C)(C)c1cc(C(F)(F)F)cc(C(F)(F)F)c1)c1cnc(N2C[C@H]3COCCN3C[C@H]2CO)cc1-c1ccc(F)cc1[14CH3] the Cmax was 521 ng/mL (LC-MS/MS; human, plasma; oral, 120 mg).
The Cmax of CCN(CCO)CCCC(C)Nc1ccnc2cc(Cl)ccc12 (stereo not drawn) is reported as 795 ng/mL (population PK model; human patients, whole blood; oral, 200 mg, steady state).
With C[C@@H](N)c1cc(Cl)ccc1Cn1c(=S)[nH]c(=O)c2[nH]ccc21 the Cmax was 6.84 nM (human, both sexes, matched healthy controls, plasma; oral, 2.5 mg single dose, geometric mean).
N[C@]1(C(=O)O)[C@H]2[C@@H](C[C@@H]1F)[C@@H]2C(=O)O gave a Cmax of 62.3 ng/mL (human, both sexes, plasma; oral, 10 mg, fasted, single dose).
With NC[C@@]1(CC(=O)O)[C@@H]2CC[C@H]3C[C@@H]2[C@@H]1C3 the Cmax was 438 ng/mL (human, severe renal impairment, plasma; oral, 20 mg single dose, geometric mean).
Cc1ncnc2c1ccn2[C@@H]1C[C@H](Oc2cc(C(F)F)c(F)c3c2CNCC3)[C@@H](O)[C@H]1O gave a Cmax of 4.14 ng/mL (human, plasma; 0.5 mg once daily).
FC(F)(F)c1ccc(CNc2ccc(Cc3c[nH]c4ncc(Cl)cc34)cn2)cn1 has a Cmax of 6310 ng/mL (human, plasma; oral, dose not given, together with: itraconazole).
COc1ccc2[nH]c([S@+]([O-])Cc3ncc(CO)c(OC)c3C)nc2c1 has a Cmax of 22 nM (human, dried plasma spots; 5 mg racemic omeprazole, together with: rifampicin pretreatment).
The Cmax of CC[C@H](C)[C@@H]([C@@H](CC(=O)N1CCC[C@H]1[C@H](OC)[C@@H](C)C(=O)N[C@@H](Cc1ccccc1)C(=O)NCCCO)OC)N(C)C(=O)[C@@H](NC(=O)[C@H](C(C)C)N(C)C)C(C)C is reported as 7.94 ng/mL (human patients, plasma; intravenous, 43 mg/m², cycle 1 geometric mean).
For COc1ccc2[nH]c([S@+]([O-])Cc3ncc(C)c(OC)c3C)nc2c1, the Cmax was 87.1 nM (human male, dried plasma spots; oral, 5 mg racemic omeprazole).
With Cc1ccc(C(=O)N(CCCN)C(c2nc3snc(C)c3c(=O)n2Cc2ccccc2)C(C)C)cc1 (stereo not drawn) the Cmax was 99.4 ng/mL (human patients, plasma; intravenous, 16 mg/day, day 3 of induction course, geometric mean).
For Cn1cncc1[C@@](N)(c1ccc(Cl)cc1)c1ccc2c(c1)c(-c1cccc(Cl)c1)cc(=O)n2C, the Cmax was 90.5 ng/mL (human, plasma; oral, dose not given, together with: omeprazole).
C[C@@H](Cn1ccc(-c2ccc(C#N)c(Cl)c2)n1)NC(=O)c1cc([C@@H](C)O)[nH]n1 gave a Cmax of 2180 pg eq/mL (healthy male human, plasma; intravenous infusion, 100 µg 14C-labelled, 15 min infusion, microtracer, geometric mean).
The Cmax of Cc1nc(-c2ccc(OCC(C)C)c(C#N)c2)sc1C(=O)O is reported as 538 ng/mL (human, plasma; oral, 20 mg once daily, together with: verinurad 5 mg).
For Cc1cc(-c2nccc3c2ccn3CC(=O)Nc2ccc(-c3cnccn3)cn2)ccn1, the Cmax was 321 nM (human, plasma; oral, 20 mg once daily, day 16, geometric mean).
Cc1cc(Nc2cc3ncccc3c(N[C@@H]3C[C@H]4CC[C@@H](C3)N4CCC#N)n2)n[nH]1 has a Cmax of 37.2 ng/mL (human, plasma; 1000 mg single dose, mean).
For CC(C)(C#N)c1cc(Cn2cncn2)cc(C(C)(C)C#N)c1, the Cmax was 14.4 ng/mL (human; 150 mg).
For C=CCn1c(=O)c2cnc(Nc3ccc(N4CCN(C)CC4)cc3)nc2n1-c1cccc(C(C)(C)O)n1, the Cmax was 676 nM (human, plasma; oral, 125 mg twice daily, day -5 lead-in, geometric mean, monotherapy).
With O=C(Nc1cnccc1Cl)N1CCN(Cc2ccc3c(c2)OC(F)(F)O3)CC1 the Cmax was 972 ng/mL (human healthy young women, plasma; oral, 100 mg once daily, day 1, multiple dose mean).
With N#Cc1ccc2c(c1)[C@H]1CCCN(C(=O)c3ccc4[nH]cnc4c3)[C@H]1C2 the Cmax was 1560 nM (human, plasma; oral, 20 mg once daily, after first dose).
With N#Cc1cc(NC(=O)[C@H]2c3ccccc3C(=O)N(CC(F)(F)F)[C@@H]2c2cccnc2)ccc1F the Cmax was 242 ng/mL (human, plasma; oral, 150 mg, median).
COc1cc([C@@H]2[C@H]3CO[C@@]4(O)C(=O)[C@@H]2C=C([C@H]2Oc5cc(O)cc(O)c5C(=O)[C@@H]2O)[C@@H]34)ccc1O has a Cmax of 140 nM (OATP1B1/1B3 humanized mice, plasma; oral gavage, 500 mg/kg silymarin).
O=C(NCCN1CCCC1)c1cc(-c2ccc(CN3CCOCC3)cc2)nc2ccc(F)cc12 gave a Cmax of 1270 ng/mL (human, whole blood; oral, 1000 mg).
With C[C@H](Oc1ccc(Br)cc1-c1ccon1)C(=O)O the Cmax was 19600 ng/mL (LC-MS/MS, non-compartmental; human, plasma; 400 mg once daily, day 10, multiple ascending dose, mean).
For Cc1cn(C(=O)c2c(-c3c(Cl)cc(Cl)cc3Cl)noc2C(C)(C)F)c2cccc(/C=C/C(=O)O)c12, the Cmax was 46300 ng/mL (human patients; 1400 mg bid, cycle 8 day 1).
COc1cc(C(=O)NC2CCN(C)CC2)c(F)cc1Nc1ncc(C(F)(F)F)c(Oc2cccc3c2C(=O)N(C)C3)n1 has a Cmax of 1530 nM (human, Taiwanese, plasma; oral, 200 mg single dose, geometric mean).
For Cc1cc(C)c(CNC(=O)c2cc(Cl)c3c(c2C)O[C@@](C)([C@H]2CC[C@H](N(C)C)CC2)O3)c(=O)[nH]1, the Cmax was 336 ng/mL (mean; healthy male humans, plasma; oral, 25 mg, day 11, together with: itraconazole).
Cn1nc2c(=O)n(C3CC3)cnc2c1[C@](O)(c1cnc(C(F)(F)F)c(Cl)c1)C(F)(F)F gave a Cmax of 1460 nM (humanized SCID mice, blood; 3 mg/kg once daily, 6 days, infected).
Cn1ncnc1[C@H]1c2n[nH]c(=O)c3cc(F)cc(c23)N[C@@H]1c1ccc(F)cc1 gave a Cmax of 6 ng/mL (human patients, plasma; oral, 600 µg/m2 twice daily, day 1, monotherapy, dose level DL5, median).
The Cmax of COc1cc2ncnc(Nc3ccc(F)c(Cl)c3)c2cc1NC(=O)/C=C/CN1CCCCC1 is reported as 11.8 ng/mL (human, normal hepatic function (NCI), plasma; single dose, geometric mean, total drug).

A few entries again:
With CC(=O)O[C@H]1C(=O)[C@@]2(C)[C@H]([C@H](OC(=O)c3ccccc3)[C@]3(O)C[C@H](OC(=O)[C@H](O)[C@@H](NC(=O)c4ccccc4)c4ccccc4)C(C)=C1C3(C)C)[C@]1(OC(C)=O)CO[C@@H]1C[C@@H]2O the Cmax was 2230 ng/mL (noncompartmental analysis; human cancer patients, plasma; intravenous infusion, 80 mg/m^2, cycle 1 day 1, together with: daily oral co-medication).
N#C[C@H](C[C@@H]1CCCNC1=O)NC(=O)[C@H](CC1CC1)NC(=O)c1cc2cccc(Cl)c2[nH]1 gave a Cmax of 1090 ng/mL (human; 150 mg once daily, day 1).
With C[C@H](CCC(=O)O)[C@H]1CC[C@H]2[C@@H]3CC[C@@H]4C[C@H](O)CC[C@]4(C)[C@H]3C[C@H](O)[C@]12C the Cmax was 1010 ± 230 nM (human, plasma; concentration not given, endogenous baseline diurnal).
With CN(C(=O)C(C)(C)c1cc(C(F)(F)F)cc(C(F)(F)F)c1)c1cnc(N2C[C@H]3COCCN3C[C@H]2CO)cc1-c1ccc(F)cc1[14CH3] the Cmax was 521 ng/mL (LC-MS/MS; human, plasma; oral, 120 mg).
The Cmax of CCN(CCO)CCCC(C)Nc1ccnc2cc(Cl)ccc12 (stereo not drawn) is reported as 795 ng/mL (population PK model; human patients, whole blood; oral, 200 mg, steady state).
With C[C@@H](N)c1cc(Cl)ccc1Cn1c(=S)[nH]c(=O)c2[nH]ccc21 the Cmax was 6.84 nM (human, both sexes, matched healthy controls, plasma; oral, 2.5 mg single dose, geometric mean).
N[C@]1(C(=O)O)[C@H]2[C@@H](C[C@@H]1F)[C@@H]2C(=O)O gave a Cmax of 62.3 ng/mL (human, both sexes, plasma; oral, 10 mg, fasted, single dose).
